Experimental data of several laboratories.
Lines come from different studies, so protocols differ. Values joined by “and” are separate records of one study, mostly repeats; a detail may differ. ± marks the error that the study gave.
rep main protease: Replicase polyprotein 1ab, main protease (rep, Severe acute respiratory syndrome coronavirus 2, UniProt P0DTD1)

With Cc1conc1C(=O)N1Cc2ccccc2C[C@H]1CNC(=O)c1cccc2[nH]ncc12 the inhibition was 10.8% (rep main protease; enzyme activity, inhibitor; 5 µM, run 2).
CNC(=O)[C@@H](NC(=O)[C@H](CC(C)C)[C@H](O)C(=O)NO)C(C)(C)C has a remaining activity of 94% and 96.3% and 96.6% (Daboia russelii venom proteases (SVMP); protease activity, inhibitor; GA population; 0.1 µM, together with: azocasein substrate; baseline: venom alone).
Under “subjects with treatment-boosted ADA”, CC[C@H](C)[C@H](NC(=O)[C@H](CC(C)C)NC(=O)[C@H](Cc1c[nH]c2ccccc12)NC(=O)[C@H](CCC(N)=O)NC(=O)[C@@H](NC(=O)[C@H](Cc1ccccc1)NC(=O)[C@H](C)NC(=O)[C@H](CCCCNC(=O)COCCOCCNC(=O)COCCOCCNC(=O)CC[C@H](NC(=O)CCCCCCCCCCCCCCCCCCC(=O)O)C(=O)O)NC(=O)[C@H](CCC(N)=O)NC(=O)[C@H](C)NC(=O)[C@@H](NC(=O)[C@H](CCCCN)NC(=O)[C@H](CC(=O)O)NC(=O)[C@H](CC(C)C)NC(=O)C(C)(C)NC(=O)[C@@H](NC(=O)[C@H](CO)NC(=O)[C@H](Cc1ccc(O)cc1)NC(=O)[C@H](CC(=O)O)NC(=O)[C@H](CO)NC(=O)[C@@H](NC(=O)[C@H](Cc1ccccc1)NC(=O)[C@@H](NC(=O)CNC(=O)[C@H](CCC(=O)O)NC(=O)C(C)(C)NC(=O)[C@@H](N)Cc1ccc(O)cc1)[C@@H](C)O)[C@@H](C)O)[C@@H](C)CC)[C@@H](C)CC)C(C)C)C(=O)N[C@@H](C)C(=O)NCC(=O)NCC(=O)N1CCC[C@H]1C(=O)N[C@@H](CO)C(=O)N[C@@H](CO)C(=O)NCC(=O)N[C@@H](C)C(=O)N1CCC[C@H]1C(=O)N1CCC[C@H]1C(=O)N1CCC[C@H]1C(=O)N[C@@H](CO)C(N)=O is recorded as 0% (refers to: anti-drug antibodies; healthy subjects; 0.5 mg, postbaseline, multiple ascending dose, titre increase ≥4-fold).
With CSCC[C@H](NC(=O)[C@H](CCCNC(=N)N)NC(=O)[C@H](Cc1ccccc1)NC(=O)[C@H](CS)NC(=O)[C@H](C)NC(=O)[C@@H](NC(=O)[C@@H](NC(=O)[C@H](C)NC(=O)[C@H](CCCNC(=N)N)NC(=O)[C@H](CCCNC(=N)N)NC(=O)[C@H](CCCNC(=N)N)NC(=O)[C@H](CCC(N)=O)NC(=O)[C@H](CCCCN)NC(=O)[C@H](CO)NC(=O)[C@H](CC(C)C)NC(=O)[C@H](CC(C)C)NC(=O)[C@H](CCCCN)NC(=O)[C@H](Cc1c[nH]cn1)NC(=O)[C@H](Cc1c[nH]c2ccccc12)NC(=O)[C@@H](NC(=O)[C@H](C)NC(=O)[C@H](CCCCN)NC(=O)[C@H](CCCCN)NC(=O)[C@H](CO)NC(=O)[C@H](CCCCN)NC(C)=O)C(C)C)C(C)C)C(C)C)C(=O)N[C@H](C(=O)N1CCC[C@H]1C(=O)N[C@@H](CC(C)C)C(=O)N[C@@H](Cc1ccc(O)cc1)C(=O)N[C@@H](CC(N)=O)C(N)=O)[C@@H](C)O the apparent ΔG2 was -15.36 ± 0.11 kcal/mol (calmodulin 1-80 sites I and II; calcium binding, Phe fluorescence titration; 12 µM, pH 7.4, 22 °C, together with: 6 µM calmodulin).
Cn1cnc(Cn2c(=O)[nH]/c(=N\c3cc4cn(C)nc4cc3Cl)n(Cc3cc(F)c(F)cc3F)c2=O)n1 — result for “patients with adverse event”: 0% (human, mild renal impairment; oral, 375 mg, treatment-related dry mouth, Severe severity).
Cc1[nH]nc2c(C(=O)N3CCC4(CCC[C@H]4NC(=O)C4=CN=C5NNN=C5C4)CC3)cccc12 has an inhibition of 9.1% (rep main protease; enzyme activity, inhibitor; 5 µM).
For CCN(CC)c1nc(C)cc(OP(=S)(OC)OC)n1, the remaining activity was 110% (uncharacterized protein (Anopheles coluzzii, UniProt A0A6E8VQK1); enzyme activity, inhibitor; Sf9 cell homogenate; 0.004587 µM, 0.1667 h, together with: α-naphthyl acetate substrate; baseline: no inhibitor).
For CC[C@H](C)[C@H](NC(=O)OCc1ccccc1)C(=O)N[C@@H](CCC(=O)OC)C(=O)N[C@H](C(=O)N[C@@H](CC(=O)OC)C(=O)CF)[C@@H](C)O, the inhibition was -0.408% (rep main protease; reporter gene (Gaussia luciferase), inhibitor; 20 µM).
With Nc1ncnc2c1ncn2[C@H]1C[C@H](O)[C@@H](COP(=O)(O)OP(=O)(O)OP(=O)(O)O)O1 the Km was 0.0853 ± 0.0223 µM (Gag-Pol polyprotein, reverse transcriptase (gag-pol, Human immunodeficiency virus type 1 group M subtype B, UniProt P04585, K653N); substrate; K66N mutant, together with: matched T:A primer template).
The inhibition of Cc1ccccc1C(=O)N[C@H](C)c1ccc2ccccc2c1 is reported as -0.271% (rep main protease; viral replication, mKate2 reporter; SARS-CoV-2; 20 µM).
For NC(=O)c1cc(C(=O)NC[C@H]2CN(C(=O)/C=C/c3cccnc3)Cc3ccccc32)c[nH]1, the inhibition was 9.5% (rep main protease; enzyme activity, inhibitor; 5 µM).
The inhibition of CCOC(=O)[C@H](CCc1ccccc1)N[C@H]1CS[C@H](c2cccs2)CN(CC(=O)O)C1=O is reported as 1.54% (rep main protease; viral replication, Gluc reporter; SARS-CoV-2; 20 µM).
Nc1ncnc2c([C@@H]3N[C@H](CO)[C@@H](O)[C@H]3O)c[nH]c12 gave an inhibition of 88.9% (Sudan ebolavirus; viral replication; HeLa, Boniface; 50 µM).

Excerpt of the above:
With CSCC[C@H](NC(=O)[C@H](CCCNC(=N)N)NC(=O)[C@H](Cc1ccccc1)NC(=O)[C@H](CS)NC(=O)[C@H](C)NC(=O)[C@@H](NC(=O)[C@@H](NC(=O)[C@H](C)NC(=O)[C@H](CCCNC(=N)N)NC(=O)[C@H](CCCNC(=N)N)NC(=O)[C@H](CCCNC(=N)N)NC(=O)[C@H](CCC(N)=O)NC(=O)[C@H](CCCCN)NC(=O)[C@H](CO)NC(=O)[C@H](CC(C)C)NC(=O)[C@H](CC(C)C)NC(=O)[C@H](CCCCN)NC(=O)[C@H](Cc1c[nH]cn1)NC(=O)[C@H](Cc1c[nH]c2ccccc12)NC(=O)[C@@H](NC(=O)[C@H](C)NC(=O)[C@H](CCCCN)NC(=O)[C@H](CCCCN)NC(=O)[C@H](CO)NC(=O)[C@H](CCCCN)NC(C)=O)C(C)C)C(C)C)C(C)C)C(=O)N[C@H](C(=O)N1CCC[C@H]1C(=O)N[C@@H](CC(C)C)C(=O)N[C@@H](Cc1ccc(O)cc1)C(=O)N[C@@H](CC(N)=O)C(N)=O)[C@@H](C)O the apparent ΔG2 was -15.36 ± 0.11 kcal/mol (calmodulin 1-80 sites I and II; calcium binding, Phe fluorescence titration; 12 µM, pH 7.4, 22 °C, together with: 6 µM calmodulin).
Cn1cnc(Cn2c(=O)[nH]/c(=N\c3cc4cn(C)nc4cc3Cl)n(Cc3cc(F)c(F)cc3F)c2=O)n1 — result for “patients with adverse event”: 0% (human, mild renal impairment; oral, 375 mg, treatment-related dry mouth, Severe severity).
